Measured values of several laboratories.
Parts stem from different laboratories: compare values within a part only.
Chain of UniProt Q13873 (whole entry, looked up): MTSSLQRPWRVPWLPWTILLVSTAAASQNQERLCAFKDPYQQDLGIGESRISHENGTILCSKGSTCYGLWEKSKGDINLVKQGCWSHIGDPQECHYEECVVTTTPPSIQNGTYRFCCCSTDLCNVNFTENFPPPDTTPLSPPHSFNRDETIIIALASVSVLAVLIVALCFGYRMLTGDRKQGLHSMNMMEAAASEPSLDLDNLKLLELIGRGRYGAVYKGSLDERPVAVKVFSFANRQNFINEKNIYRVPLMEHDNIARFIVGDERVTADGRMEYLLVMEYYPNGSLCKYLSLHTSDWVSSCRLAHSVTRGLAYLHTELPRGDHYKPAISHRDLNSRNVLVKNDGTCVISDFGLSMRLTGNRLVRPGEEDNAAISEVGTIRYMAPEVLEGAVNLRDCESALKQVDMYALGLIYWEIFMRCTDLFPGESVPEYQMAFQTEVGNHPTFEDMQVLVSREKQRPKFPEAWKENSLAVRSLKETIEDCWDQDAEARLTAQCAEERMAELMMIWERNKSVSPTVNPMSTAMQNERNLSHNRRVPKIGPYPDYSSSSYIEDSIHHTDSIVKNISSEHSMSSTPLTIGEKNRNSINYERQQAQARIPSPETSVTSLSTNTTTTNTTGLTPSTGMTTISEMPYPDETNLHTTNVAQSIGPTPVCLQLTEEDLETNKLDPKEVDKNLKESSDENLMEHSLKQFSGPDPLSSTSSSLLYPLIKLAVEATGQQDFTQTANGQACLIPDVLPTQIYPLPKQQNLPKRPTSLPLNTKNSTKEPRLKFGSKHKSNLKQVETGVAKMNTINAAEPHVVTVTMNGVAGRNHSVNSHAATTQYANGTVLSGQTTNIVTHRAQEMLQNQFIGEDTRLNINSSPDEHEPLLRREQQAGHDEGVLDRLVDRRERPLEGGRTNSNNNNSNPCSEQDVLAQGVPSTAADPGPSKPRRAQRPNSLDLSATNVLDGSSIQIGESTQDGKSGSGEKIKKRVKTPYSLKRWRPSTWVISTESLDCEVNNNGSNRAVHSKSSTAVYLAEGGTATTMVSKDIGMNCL
Chain of UniProt P27037 (whole entry, looked up): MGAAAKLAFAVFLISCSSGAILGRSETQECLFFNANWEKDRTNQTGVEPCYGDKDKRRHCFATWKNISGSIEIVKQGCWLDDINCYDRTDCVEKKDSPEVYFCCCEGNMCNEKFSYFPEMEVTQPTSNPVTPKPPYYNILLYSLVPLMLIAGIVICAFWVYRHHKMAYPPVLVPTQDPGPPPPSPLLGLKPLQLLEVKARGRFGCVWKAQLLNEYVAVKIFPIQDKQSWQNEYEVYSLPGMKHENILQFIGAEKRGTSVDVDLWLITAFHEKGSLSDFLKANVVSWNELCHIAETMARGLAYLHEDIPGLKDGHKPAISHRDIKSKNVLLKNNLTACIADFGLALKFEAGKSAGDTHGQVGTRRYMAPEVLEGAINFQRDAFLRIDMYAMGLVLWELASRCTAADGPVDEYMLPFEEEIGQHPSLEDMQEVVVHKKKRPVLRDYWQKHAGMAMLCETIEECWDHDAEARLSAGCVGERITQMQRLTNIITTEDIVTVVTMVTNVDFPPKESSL
Chain of UniProt Q9H0K1 (whole entry, looked up): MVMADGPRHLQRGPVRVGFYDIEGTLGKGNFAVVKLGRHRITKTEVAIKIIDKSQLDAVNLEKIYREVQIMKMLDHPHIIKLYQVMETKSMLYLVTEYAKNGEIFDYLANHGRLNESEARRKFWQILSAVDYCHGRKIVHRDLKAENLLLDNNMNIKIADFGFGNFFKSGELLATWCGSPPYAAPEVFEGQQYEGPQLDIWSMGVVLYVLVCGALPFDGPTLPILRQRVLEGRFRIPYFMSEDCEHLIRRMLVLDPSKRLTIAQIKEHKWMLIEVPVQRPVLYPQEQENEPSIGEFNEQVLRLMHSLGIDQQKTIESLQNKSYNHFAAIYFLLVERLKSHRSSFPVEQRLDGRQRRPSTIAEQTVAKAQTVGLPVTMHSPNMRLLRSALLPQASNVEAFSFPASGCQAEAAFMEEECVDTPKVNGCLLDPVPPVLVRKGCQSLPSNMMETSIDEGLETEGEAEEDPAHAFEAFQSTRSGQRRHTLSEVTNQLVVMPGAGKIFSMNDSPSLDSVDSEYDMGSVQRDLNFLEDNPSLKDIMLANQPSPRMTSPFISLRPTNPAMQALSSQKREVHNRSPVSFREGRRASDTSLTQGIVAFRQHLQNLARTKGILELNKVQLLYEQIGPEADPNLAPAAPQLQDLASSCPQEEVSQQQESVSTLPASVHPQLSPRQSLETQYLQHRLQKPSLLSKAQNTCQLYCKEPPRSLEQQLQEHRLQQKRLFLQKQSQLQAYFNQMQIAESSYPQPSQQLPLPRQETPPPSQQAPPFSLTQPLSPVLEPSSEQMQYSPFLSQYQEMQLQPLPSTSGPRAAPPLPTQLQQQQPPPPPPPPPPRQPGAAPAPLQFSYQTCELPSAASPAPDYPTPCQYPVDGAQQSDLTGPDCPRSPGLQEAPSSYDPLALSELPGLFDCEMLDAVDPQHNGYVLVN
Chain of UniProt Q13705 (whole entry, looked up): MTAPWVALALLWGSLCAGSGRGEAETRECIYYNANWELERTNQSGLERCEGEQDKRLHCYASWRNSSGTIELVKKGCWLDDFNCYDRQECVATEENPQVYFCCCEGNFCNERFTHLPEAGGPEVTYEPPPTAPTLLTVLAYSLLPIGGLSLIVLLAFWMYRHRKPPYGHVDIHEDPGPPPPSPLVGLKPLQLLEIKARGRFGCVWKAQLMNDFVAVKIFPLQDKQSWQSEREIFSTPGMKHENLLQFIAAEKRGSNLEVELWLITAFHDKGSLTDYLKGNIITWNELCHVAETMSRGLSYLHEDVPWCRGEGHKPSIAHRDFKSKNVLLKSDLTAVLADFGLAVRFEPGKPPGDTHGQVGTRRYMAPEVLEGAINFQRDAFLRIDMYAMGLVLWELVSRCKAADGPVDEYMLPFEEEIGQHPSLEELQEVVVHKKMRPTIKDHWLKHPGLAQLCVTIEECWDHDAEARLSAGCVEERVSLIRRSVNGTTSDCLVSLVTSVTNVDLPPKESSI
Chain of UniProt O43293 (whole entry, looked up): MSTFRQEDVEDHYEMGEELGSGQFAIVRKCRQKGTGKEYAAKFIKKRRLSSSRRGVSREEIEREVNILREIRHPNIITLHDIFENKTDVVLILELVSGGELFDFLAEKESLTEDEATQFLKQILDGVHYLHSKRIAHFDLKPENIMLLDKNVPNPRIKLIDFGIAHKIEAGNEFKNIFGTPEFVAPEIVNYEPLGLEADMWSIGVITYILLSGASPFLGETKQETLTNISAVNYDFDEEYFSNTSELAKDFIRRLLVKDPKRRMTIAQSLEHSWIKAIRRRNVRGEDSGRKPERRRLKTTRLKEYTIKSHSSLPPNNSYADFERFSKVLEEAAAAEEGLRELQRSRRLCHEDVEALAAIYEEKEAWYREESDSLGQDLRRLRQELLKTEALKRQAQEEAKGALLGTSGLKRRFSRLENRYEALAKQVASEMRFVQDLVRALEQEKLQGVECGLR
Chain of UniProt P36896 (whole entry, looked up): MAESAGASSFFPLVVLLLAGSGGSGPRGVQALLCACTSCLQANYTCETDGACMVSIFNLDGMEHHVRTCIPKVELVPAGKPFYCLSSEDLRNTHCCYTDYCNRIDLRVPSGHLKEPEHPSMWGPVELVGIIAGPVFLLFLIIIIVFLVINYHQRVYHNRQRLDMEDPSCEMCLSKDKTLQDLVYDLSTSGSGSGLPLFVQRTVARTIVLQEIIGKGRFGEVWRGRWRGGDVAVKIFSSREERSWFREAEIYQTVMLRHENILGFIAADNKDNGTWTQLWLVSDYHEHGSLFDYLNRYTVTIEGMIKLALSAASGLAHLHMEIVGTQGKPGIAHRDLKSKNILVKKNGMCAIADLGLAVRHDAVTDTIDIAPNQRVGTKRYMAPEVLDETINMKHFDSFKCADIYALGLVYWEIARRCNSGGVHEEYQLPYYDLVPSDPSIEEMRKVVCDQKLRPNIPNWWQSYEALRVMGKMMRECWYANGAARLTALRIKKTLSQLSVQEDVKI

Sample 1
Compound: C=CCc1ccc(O)c(-c2ccc(O)c(CC=C)c2)c1
Observed: chloride current
ANO1: Anoctamin-1 (ANO1, Homo sapiens, UniProt Q5XXA6)
Chain of UniProt Q5XXA6 (whole entry, unmodified, looked up): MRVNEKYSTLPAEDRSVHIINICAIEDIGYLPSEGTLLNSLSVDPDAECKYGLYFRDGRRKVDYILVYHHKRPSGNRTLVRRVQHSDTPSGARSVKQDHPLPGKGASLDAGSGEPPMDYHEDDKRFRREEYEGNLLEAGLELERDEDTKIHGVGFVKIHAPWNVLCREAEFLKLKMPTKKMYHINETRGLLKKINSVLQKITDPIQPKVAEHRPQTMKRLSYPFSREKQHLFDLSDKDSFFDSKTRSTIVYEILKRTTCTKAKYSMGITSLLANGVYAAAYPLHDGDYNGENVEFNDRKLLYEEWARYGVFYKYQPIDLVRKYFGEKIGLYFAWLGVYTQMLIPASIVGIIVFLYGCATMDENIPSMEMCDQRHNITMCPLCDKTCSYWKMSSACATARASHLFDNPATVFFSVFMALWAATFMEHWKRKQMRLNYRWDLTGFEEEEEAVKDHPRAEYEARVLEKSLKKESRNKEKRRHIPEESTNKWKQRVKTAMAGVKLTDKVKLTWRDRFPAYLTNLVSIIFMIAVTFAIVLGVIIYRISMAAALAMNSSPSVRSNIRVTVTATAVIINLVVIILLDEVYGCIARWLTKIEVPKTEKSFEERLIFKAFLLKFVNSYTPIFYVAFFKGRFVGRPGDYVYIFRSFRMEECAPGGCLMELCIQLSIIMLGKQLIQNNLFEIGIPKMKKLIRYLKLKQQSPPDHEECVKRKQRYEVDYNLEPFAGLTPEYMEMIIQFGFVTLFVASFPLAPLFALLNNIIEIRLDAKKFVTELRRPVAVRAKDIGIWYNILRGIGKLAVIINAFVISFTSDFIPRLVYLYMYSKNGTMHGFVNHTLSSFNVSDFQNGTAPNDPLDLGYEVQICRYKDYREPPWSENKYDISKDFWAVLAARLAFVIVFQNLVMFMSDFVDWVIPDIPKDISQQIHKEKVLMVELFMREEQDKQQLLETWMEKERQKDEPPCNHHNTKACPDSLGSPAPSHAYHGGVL
ANO1 del476-501: Anoctamin-1 (ANO1, Homo sapiens, UniProt Q5XXA6, del476-501)
ANO1 del476-501/F628A: Anoctamin-1 (ANO1, Homo sapiens, UniProt Q5XXA6, del476-501/F628A)
| target | mode | technique | concentration | notes | added | normalized current |
| --- | --- | --- | --- | --- | --- | --- |
| ANO1 | – | inside-out patch clamp | 10 µM | membrane voltage 60 mV | – | 0.471 |
| Anoctamin-1 (ANO1, Homo sapiens, UniProt Q5XXA6, del476-501/E659A) | – | inside-out patch clamp | 10 µM | membrane voltage 100 mV | – | 0.814 |
| TMEM16A (human) K603A/E623A | – | inside-out patch clamp | 10 µM | membrane voltage -40 mV | – | -0.175 |
| ANO1 del476-501 | – | whole-cell voltage clamp | 3 µM | wild type, concentration-response at 20 mV | 4 µM Ca2+ | 0.144 |
| TMEM16A (human) K603A/E623A | – | inside-out patch clamp | 10 µM | membrane voltage -60 mV | – | -0.259 |
| ANO1 | – | inside-out patch clamp | 10 µM | membrane voltage 20 mV | – | 0.151 |
| ANO1 del476-501/F628A | – | whole-cell voltage clamp | 3 µM | concentration-response at 60 mV | 4 µM Ca2+ | 0.538 |
| ANO1 del476-501/F628A | – | whole-cell voltage clamp | 3 µM | I-V at -40 mV | 4 µM Ca2+ | -0.291 |
| ANO1 del476-501/F628A | – | whole-cell voltage clamp | 1 µM | I-V at -80 mV | 4 µM Ca2+ | -0.641 |
| ANO1 del476-501/F628A | – | whole-cell voltage clamp | 3 µM | concentration-response at 40 mV | 4 µM Ca2+ | 0.356 |
| ANO1 del476-501 | – | whole-cell voltage clamp | 1 µM | wild type, I-V at -100 mV | 4 µM Ca2+ | -0.784 |
| ANO1 del476-501 | – | whole-cell voltage clamp | 3 µM | wild type, I-V at 40 mV | 4 µM Ca2+ | 0.315 |
| Anoctamin-1 (ANO1, Homo sapiens, UniProt Q5XXA6, del476-501/R541A) | inhibitor | inside-out patch clamp | 10 µM | R515A mutant at -100 mV | – | -0.663 |

Sample 2
Structure (SMILES): O=C(Nc1cnn(-c2csc(C(=O)NC3COC3)c2)c1)Nc1c(F)cccc1Cl
Observed: enzyme activity
Concentration: 5 µM
Reference: untreated control
| target | remaining activity |
| --- | --- |
| SIK2 (Homo sapiens, UniProt Q9H0K1) | 95.4% |
| MAP3K3 (Homo sapiens, UniProt Q99759) | 80.4% |
| PIM2 (Homo sapiens, UniProt Q9P1W9) | 127% |
| ACVR1B (Homo sapiens, UniProt P36896) | 80.1% |
| NTRK1 (Homo sapiens, UniProt P04629) | 87.5% |
| MERTK (Homo sapiens, UniProt Q12866) | 76% |
| DAPK3 (Homo sapiens, UniProt O43293) | 100% |
| BMPR2 (Homo sapiens, UniProt Q13873) | 74.9% |
| Protein kinase C beta type, isoform beta-I (PRKCB, Homo sapiens, UniProt P05771) | 98.7% |
| TXK (Homo sapiens, UniProt P42681) | 90.2% |

Sample 3
Cell line: mouse MPNST tumor cells
Technique: high-content immunofluorescence imaging
Item: nuclear SOX9
Concentration: 10 µM
Time: 12 h
Notes: mean of 2 replicates
Reference: DMSO control
Direction: higher = more nuclear SOX9
| Structure (SMILES) | nuclear SOX9 intensity |
| --- | --- |
| CCCCCN(CCCOC)C(=O)C(CCC(=O)O)NC(=O)c1ccc(Cl)c(Cl)c1 (centres unmarked) | 99.1 % of DMSO |
| COc1cc(C(=O)N2CCOCC2)cc(OC)c1OC | 94.8 % of DMSO |
| CCCCN(CC)c1nc(C)nc2c1c(C)cn2-c1c(C)cc(C)cc1C | 106 % of DMSO |
| Cc1cc(-c2nncc3c(C(C)(C)C)c(OCc4ncnn4C)nn23)no1 | 90.6 % of DMSO |
| c1ccc(CN(CC2=NCCN2)c2ccccc2)cc1 | 116 % of DMSO |
| Cc1onc(-c2ccccc2Cl)c1C(=O)N[C@@H]1C(=O)N2[C@@H]1SC(C)(C)[C@@H]2C(=O)O | 91.2 % of DMSO |
| COc1ccccc1S(=O)(=O)Nc1ccc2c(c1)CN(C)C(=O)N2 | 110 % of DMSO |
| CCn1c(=O)c(-c2ccc(-c3cncs3)cc2Cl)cc2cnc(Nc3ccc(N4CCN(C)CC4)cc3)nc21 | 91.1 % of DMSO |

Sample 4
Structure (SMILES): N#Cc1ccc(Nc2ccc3[nH]c(=O)[nH]c3c2)c(Cl)c1
Concentration: 1 µM
| target | observed | technique | remaining binding [%] |
| --- | --- | --- | --- |
| Myosin-IIIa (MYO3A, Homo sapiens, UniProt Q8NEV4) | binding | competition with immobilised ligand | 97 |
| Tyrosine-protein kinase ABL1, phosphorylated (ABL1, Homo sapiens, UniProt P00519, Y253F) | cell-free assay | competition with immobilised ligand | 87 |
| PDGFRB (Homo sapiens, UniProt P09619) | cell-free assay | competition with immobilised ligand | 100 |
| CAMK4 (Homo sapiens, UniProt Q16566) | cell-free assay | competition with immobilised ligand | 100 |
| STK39 (Homo sapiens, UniProt Q9UEW8) | cell-free assay | competition with immobilised ligand | 100 |
| CDK15 (Homo sapiens, UniProt Q96Q40) | cell-free assay | competition with immobilised ligand | 94 |
| INSRR (Homo sapiens, UniProt P14616) | cell-free assay | competition with immobilised ligand | 100 |
| SIK1 (Homo sapiens, UniProt P57059) | – | competition binding | 100 |
| ACVR2A (Homo sapiens, UniProt P27037) | cell-free assay | competition with immobilised ligand | 70 |
| Aurora kinase A (AURKA, Homo sapiens, UniProt O14965) | cell-free assay | competition with immobilised ligand | 87 |
| MAPKAPK5 (Homo sapiens, UniProt Q8IW41) | cell-free assay | competition with immobilised ligand | 92 |
| EGFR (Homo sapiens, UniProt P00533, A750P/del747-749) | cell-free assay | competition with immobilised ligand | 100 |
| CLK2 (Homo sapiens, UniProt P49760) | cell-free assay | competition with immobilised ligand | 100 |
| GAK (Homo sapiens, UniProt O14976) | cell-free assay | competition with immobilised ligand | 100 |
| CDK11A (Homo sapiens, UniProt Q9UQ88) | binding | competition with immobilised ligand | 97 |
| Aurora kinase B (AURKB, Homo sapiens, UniProt Q96GD4) | cell-free assay | competition with immobilised ligand | 85 |
| CDK14 (Homo sapiens, UniProt O94921) | cell-free assay | competition with immobilised ligand | 100 |
| Ribosomal protein S6 kinase alpha-3, C-terminal kinase domain (RPS6KA3, Homo sapiens, UniProt P51812) | cell-free assay | competition with immobilised ligand | 87 |
| IKBKE (Homo sapiens, UniProt Q14164) | cell-free assay | competition with immobilised ligand | 100 |
| EPHA1 (Homo sapiens, UniProt P21709) | cell-free assay | competition with immobilised ligand | 91 |
| DDR2 (Homo sapiens, UniProt Q16832) | cell-free assay | competition with immobilised ligand | 100 |
| ACVR2B (Homo sapiens, UniProt Q13705) | binding | competition with immobilised ligand | 81 |
| FLT3 (Homo sapiens, UniProt P36888) | cell-free assay | competition with immobilised ligand | 100 |
| LTK (Homo sapiens, UniProt P29376) | cell-free assay | competition with immobilised ligand | 100 |
| EGFR (Homo sapiens, UniProt P00533, del747-752/P753S) | cell-free assay | competition with immobilised ligand | 62 |

Repeated from above (sample 1):
| target | mode | technique | concentration | notes | added | normalized current |
| --- | --- | --- | --- | --- | --- | --- |
| ANO1 del476-501/F628A | – | whole-cell voltage clamp | 1 µM | I-V at -80 mV | 4 µM Ca2+ | -0.641 |
| ANO1 del476-501 | – | whole-cell voltage clamp | 3 µM | wild type, concentration-response at 20 mV | 4 µM Ca2+ | 0.144 |
| ANO1 del476-501/F628A | – | whole-cell voltage clamp | 3 µM | I-V at -40 mV | 4 µM Ca2+ | -0.291 |
| ANO1 | – | inside-out patch clamp | 10 µM | membrane voltage 60 mV | – | 0.471 |
